# Experimental data pooled from the literature.
# Protocols differ between the studies behind these lines. ± marks the error that the study gave.
# CYP2E1: Cytochrome P450 2E1 (CYP2E1, Homo sapiens, UniProt P05181)
# Sequence of UniProt P05181 (whole entry, looked up): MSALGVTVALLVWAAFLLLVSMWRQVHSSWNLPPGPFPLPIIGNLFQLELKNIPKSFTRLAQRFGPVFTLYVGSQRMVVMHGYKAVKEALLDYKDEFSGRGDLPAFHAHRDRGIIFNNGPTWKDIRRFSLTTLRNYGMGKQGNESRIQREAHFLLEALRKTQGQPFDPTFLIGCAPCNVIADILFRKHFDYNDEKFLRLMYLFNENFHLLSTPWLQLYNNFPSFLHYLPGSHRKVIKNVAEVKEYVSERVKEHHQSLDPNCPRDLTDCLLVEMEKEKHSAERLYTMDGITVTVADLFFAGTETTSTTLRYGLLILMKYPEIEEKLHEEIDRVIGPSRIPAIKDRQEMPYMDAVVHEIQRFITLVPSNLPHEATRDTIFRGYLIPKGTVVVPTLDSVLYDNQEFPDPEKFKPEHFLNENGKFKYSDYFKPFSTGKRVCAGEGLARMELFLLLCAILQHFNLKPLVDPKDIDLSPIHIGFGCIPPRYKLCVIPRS
# SHMT1: Serine hydroxymethyltransferase, cytosolic (SHMT1, Homo sapiens, UniProt P34896)
# Sequence of UniProt P34896 (whole entry, looked up): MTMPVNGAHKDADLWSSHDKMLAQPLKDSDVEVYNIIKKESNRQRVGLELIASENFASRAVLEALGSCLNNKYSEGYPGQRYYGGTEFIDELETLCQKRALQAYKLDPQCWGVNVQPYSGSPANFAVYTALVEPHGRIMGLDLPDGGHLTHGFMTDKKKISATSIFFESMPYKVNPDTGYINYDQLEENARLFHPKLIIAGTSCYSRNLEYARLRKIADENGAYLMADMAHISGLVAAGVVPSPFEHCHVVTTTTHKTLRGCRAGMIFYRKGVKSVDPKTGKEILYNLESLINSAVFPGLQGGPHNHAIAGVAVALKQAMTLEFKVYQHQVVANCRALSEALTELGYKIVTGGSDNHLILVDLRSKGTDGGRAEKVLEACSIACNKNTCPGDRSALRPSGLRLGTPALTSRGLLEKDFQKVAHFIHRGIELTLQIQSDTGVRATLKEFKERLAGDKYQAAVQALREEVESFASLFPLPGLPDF
# FLP: Female-specific lacrimal gland protein (FLP, Mesocricetus auratus, UniProt Q99MG7)
# Sequence of UniProt Q99MG7 (whole entry, looked up): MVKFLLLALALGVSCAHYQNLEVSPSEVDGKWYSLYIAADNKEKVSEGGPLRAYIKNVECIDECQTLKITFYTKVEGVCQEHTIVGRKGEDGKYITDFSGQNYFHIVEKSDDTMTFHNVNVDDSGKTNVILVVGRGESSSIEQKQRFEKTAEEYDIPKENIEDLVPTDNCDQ
# Lrrk2: Leucine-rich repeat serine/threonine-protein kinase 2 (Lrrk2, Mus musculus, UniProt Q5S006)
# Sequence of UniProt Q5S006 (whole entry, looked up): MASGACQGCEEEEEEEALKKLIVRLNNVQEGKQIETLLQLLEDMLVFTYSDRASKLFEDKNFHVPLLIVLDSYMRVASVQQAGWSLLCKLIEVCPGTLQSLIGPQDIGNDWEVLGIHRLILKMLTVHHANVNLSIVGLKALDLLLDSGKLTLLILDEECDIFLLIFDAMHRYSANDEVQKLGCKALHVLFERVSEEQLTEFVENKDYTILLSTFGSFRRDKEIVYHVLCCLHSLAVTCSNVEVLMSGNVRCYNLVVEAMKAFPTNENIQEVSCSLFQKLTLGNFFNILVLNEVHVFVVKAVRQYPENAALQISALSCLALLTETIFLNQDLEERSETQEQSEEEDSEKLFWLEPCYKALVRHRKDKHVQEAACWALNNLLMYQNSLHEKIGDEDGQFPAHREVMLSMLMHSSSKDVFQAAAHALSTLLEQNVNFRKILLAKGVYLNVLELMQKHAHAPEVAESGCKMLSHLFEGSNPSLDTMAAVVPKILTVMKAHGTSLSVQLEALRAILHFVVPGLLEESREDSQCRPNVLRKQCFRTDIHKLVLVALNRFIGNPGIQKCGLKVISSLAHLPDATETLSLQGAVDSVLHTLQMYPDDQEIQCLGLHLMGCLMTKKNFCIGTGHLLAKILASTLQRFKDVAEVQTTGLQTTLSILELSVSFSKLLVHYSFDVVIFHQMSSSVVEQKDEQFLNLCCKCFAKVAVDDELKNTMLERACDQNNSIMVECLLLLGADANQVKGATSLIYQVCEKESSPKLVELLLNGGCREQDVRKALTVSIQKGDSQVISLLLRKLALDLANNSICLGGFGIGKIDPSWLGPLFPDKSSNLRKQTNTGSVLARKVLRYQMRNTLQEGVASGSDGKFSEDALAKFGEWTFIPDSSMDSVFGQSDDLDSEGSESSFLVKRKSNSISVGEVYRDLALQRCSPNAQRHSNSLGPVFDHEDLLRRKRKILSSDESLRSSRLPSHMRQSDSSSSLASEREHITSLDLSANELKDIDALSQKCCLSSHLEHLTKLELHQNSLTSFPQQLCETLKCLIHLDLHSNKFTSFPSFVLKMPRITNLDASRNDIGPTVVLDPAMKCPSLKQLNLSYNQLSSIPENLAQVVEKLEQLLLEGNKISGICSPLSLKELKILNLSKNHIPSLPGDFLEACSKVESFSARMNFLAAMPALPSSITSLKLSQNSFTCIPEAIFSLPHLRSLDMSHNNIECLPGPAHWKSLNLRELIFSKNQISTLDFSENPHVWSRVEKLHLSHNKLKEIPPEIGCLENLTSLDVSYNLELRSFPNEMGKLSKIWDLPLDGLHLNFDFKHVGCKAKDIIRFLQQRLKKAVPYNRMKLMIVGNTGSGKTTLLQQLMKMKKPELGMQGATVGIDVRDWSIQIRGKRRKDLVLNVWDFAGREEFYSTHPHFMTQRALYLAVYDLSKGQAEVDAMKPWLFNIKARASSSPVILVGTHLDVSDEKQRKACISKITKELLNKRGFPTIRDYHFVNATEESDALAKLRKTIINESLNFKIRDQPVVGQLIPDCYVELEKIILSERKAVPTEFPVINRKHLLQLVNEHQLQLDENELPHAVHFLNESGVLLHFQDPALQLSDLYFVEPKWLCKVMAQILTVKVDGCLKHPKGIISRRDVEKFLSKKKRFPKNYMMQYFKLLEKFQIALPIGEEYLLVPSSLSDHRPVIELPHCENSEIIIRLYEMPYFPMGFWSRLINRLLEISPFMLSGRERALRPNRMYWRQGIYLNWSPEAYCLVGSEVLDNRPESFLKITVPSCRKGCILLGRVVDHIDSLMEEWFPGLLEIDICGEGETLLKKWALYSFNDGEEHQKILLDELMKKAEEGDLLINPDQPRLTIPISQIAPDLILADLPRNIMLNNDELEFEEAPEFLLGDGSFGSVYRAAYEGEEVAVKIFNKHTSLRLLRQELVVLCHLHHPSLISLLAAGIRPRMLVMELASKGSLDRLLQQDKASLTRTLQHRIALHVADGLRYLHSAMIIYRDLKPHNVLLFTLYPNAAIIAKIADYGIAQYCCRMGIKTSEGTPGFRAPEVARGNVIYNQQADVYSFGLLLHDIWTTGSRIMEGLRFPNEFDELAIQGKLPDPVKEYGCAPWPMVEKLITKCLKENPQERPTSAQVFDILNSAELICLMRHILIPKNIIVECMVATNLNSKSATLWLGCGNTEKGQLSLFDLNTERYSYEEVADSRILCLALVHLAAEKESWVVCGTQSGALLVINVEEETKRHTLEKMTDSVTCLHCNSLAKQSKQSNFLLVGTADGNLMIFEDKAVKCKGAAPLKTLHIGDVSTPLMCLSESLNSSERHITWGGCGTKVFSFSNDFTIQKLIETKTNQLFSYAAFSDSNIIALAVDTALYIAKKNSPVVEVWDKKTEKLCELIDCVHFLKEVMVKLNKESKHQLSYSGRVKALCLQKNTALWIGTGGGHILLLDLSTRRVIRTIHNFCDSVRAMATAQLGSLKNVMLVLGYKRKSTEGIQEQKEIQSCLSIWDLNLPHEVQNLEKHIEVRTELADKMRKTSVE
# NNMT: Nicotinamide N-methyltransferase (NNMT, Homo sapiens, UniProt P40261)
# Sequence of UniProt P40261 (whole entry, looked up): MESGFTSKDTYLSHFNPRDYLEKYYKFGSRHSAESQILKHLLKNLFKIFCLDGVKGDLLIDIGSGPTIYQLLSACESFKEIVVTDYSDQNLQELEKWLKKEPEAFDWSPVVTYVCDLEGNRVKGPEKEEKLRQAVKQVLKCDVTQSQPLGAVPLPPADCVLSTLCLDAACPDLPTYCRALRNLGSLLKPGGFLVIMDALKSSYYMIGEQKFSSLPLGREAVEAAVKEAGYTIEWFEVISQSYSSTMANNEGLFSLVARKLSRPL
# sfhI: sfhI (Serratia fonticola, UniProt Q9RMI1)
# Sequence of UniProt P00698 (whole entry, looked up): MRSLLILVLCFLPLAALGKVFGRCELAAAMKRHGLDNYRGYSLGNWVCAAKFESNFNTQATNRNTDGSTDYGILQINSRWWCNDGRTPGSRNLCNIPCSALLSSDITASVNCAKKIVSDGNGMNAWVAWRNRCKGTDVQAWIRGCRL
# Sequence of UniProt Q9H7Z6 (whole entry, looked up): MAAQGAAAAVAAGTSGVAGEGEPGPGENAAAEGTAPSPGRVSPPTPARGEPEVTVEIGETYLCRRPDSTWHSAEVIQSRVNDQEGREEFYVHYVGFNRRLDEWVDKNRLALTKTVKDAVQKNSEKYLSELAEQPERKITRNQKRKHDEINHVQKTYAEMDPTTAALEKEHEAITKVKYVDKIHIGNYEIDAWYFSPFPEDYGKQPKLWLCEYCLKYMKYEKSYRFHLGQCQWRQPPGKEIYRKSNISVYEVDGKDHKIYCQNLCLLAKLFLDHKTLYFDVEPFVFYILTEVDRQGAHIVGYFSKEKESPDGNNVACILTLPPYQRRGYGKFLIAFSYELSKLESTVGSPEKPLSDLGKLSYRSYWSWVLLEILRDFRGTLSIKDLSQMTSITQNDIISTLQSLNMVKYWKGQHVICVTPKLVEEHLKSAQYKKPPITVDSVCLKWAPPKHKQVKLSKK
# Sequence of UniProt O43570 (whole entry, looked up): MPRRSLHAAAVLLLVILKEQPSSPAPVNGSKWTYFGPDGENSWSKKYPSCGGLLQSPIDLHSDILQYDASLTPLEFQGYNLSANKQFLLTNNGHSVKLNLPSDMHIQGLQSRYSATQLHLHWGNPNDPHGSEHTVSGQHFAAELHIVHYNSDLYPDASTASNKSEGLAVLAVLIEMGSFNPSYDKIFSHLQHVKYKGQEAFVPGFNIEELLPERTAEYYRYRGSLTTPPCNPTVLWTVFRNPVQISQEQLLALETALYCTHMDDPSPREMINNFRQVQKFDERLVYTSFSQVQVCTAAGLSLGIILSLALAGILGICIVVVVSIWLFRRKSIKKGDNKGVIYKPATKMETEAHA
Compound,target,test,system,conditions,Ki
CCCN(CC[C@]1(O)C[C@@H](NC(=O)c2cccc(-c3noc(C)n3)c2)C1)[C@H]1CCc2nc(N)sc2C1 (relative stereo),"dopamine D2-like receptor, rat",radioligand binding,rat striatal membranes,"high-affinity component, with: [3H]spiperone",15.8 ± 5.91 µM
O=c1ccn([C@H]2CC[C@@H](CO)O2)c(=O)[nH]1,uracil transporter,"uracil uptake, inhibitor","Trypanosoma brucei brucei, bloodstream form","30 s, with: 0.15 µM [3H]-uracil",2260 ± 540 µM
CCCN(CC[C@]1(O)C[C@H](NS(=O)(=O)c2ccccc2OC)C1)[C@H]1CCc2nc(N)sc2C1 (relative stereo),"dopamine D2-like receptor, rat",radioligand binding,rat striatal membranes,"high-affinity component, with: [3H]spiperone",0.17 ± 0.018 µM
Nc1ncnc2c1ncn2[C@@H]1O[C@H](COP(=O)(O)OP(=O)(O)OP(=O)(O)O)[C@@H](O)[C@H]1O,"GTP:AMP phosphotransferase AK3, mitochondrial (AK3, Homo sapiens, UniProt Q9UIJ7)",inhibitor,,,1700 µM
O=c1cc[nH]c(=S)[nH]1,uracil transporter,"uracil uptake, inhibitor","Trypanosoma brucei brucei, bloodstream form","30 s, with: 0.15 µM [3H]-uracil",700 ± 130 µM
CCCCCC/C=C/C=O,CYP2E1,competitive inhibitor,human liver S9,"30 min, pH 7.4, with: p-nitrophenol substrate",2.9 ± 0.2 µM
O=c1[nH]cc(Cl)c(=O)[nH]1,uracil transporter,"uracil uptake, inhibitor","Trypanosoma brucei brucei, bloodstream form","30 s, with: 0.15 µM [3H]-uracil",560 ± 180 µM
CN(Cc1cnc2nc(N)nc(N)c2n1)c1ccc(C(=O)N[C@@H](CCC(=O)O)C(=O)O)cc1,SHMT1,"enzyme activity, absorbance",,pH 7.2,201 µM
COc1cc(Cl)c(S(=O)(=O)N2CCCCC2)cc1Cl,"Melanopsin (OPN4, Homo sapiens, UniProt Q9UHM6)","binding, competition binding",CHO-Opn4 cell membranes,"with: tritiated 2-isomer, 300 pM",0.00043 ± 5e-05 µM
O=C1C(=O)N(Cc2ccc(Cc3ccc(CN4C(=O)C(=O)c5ccccc54)cc3)cc2)c2ccccc21,"Replicase polyprotein 1ab, main protease (Feline coronavirus, UniProt Q98VG9)","enzyme activity, inhibitor, fluorescence",,,5.8 µM
CC12CCC(CC1)C(C)(C)O2,FLP,"binding, fluorescence displacement",,with: 1-NPN 2 µM,0.24 µM
CC(=O)N[C@H]1[C@H](O[C@H]2[C@H](O)[C@@H](NC(C)=O)C(O)O[C@@H]2CO)O[C@H](CO)[C@@H](O)[C@@H]1O (stereo partly drawn),"Lysozyme C (LYZ, Gallus gallus, UniProt P00698)","enzyme activity, inhibitor, fluorescence",,,450 µM
CCCCCCC/C=C/C=O,CYP2E1,competitive inhibitor,human liver S9,"30 min, pH 7.4, with: p-nitrophenol substrate",3.3 ± 0.1 µM
Nc1ncnc2c1ncn2[C@@H]1O[C@H](COP(=O)(O)OP(=O)(O)O)[C@@H](O)[C@H]1O,Lrrk2,"GTPase activity, inhibitor, radiometric TLC",,with: GTP,300 µM
CCCCCCC=O,FLP,"binding, fluorescence displacement",,with: 1-NPN 2 µM,11.4 µM
CCCN(CCC1(O)CC(NS(=O)(=O)c2ccc(Cl)cc2)C1)[C@H]1CCc2nc(N)sc2C1 (stereo in doubt),"dopamine D2-like receptor, rat",radioligand binding,rat striatal membranes,"high-affinity component, with: [3H]spiperone",0.542 ± 0.079 µM
O=C1CCNC(=O)N1,uracil transporter,"uracil uptake, inhibitor","Trypanosoma brucei brucei, bloodstream form","30 s, with: 0.15 µM [3H]-uracil",> 5000 µM
CN(C)CCC=C1c2ccccc2C=Cc2ccccc21,"HTR2A (Homo sapiens, UniProt P28223)","ligand displacement, radioligand",,,0.029 µM
NCCCNc1ncnc2c1ncn2[C@@H]1O[C@H](CN(CC#Cc2cccc(C(N)=O)c2)CC[C@H](N)C(=O)O)[C@@H](O)[C@H]1O,NNMT,"enzyme activity, inhibitor, fluorescence",,,0.21 µM
CC(=O)N[C@@H](CS)C(=O)O,"Myeloperoxidase (MPO, Homo sapiens, UniProt P05164)","enzyme activity, inhibitor",,,0.1 µM
C=CC(C)CCCC(C)(C)O (stereo not drawn),FLP,"binding, fluorescence displacement",,with: 1-NPN 2 µM,8 µM
CCCN(CCC1(O)CC(NS(=O)(=O)c2cccc(OC)c2)C1)[C@H]1CCc2nc(N)sc2C1 (stereo in doubt),"dopamine D2-like receptor, rat",radioligand binding,rat striatal membranes,"high-affinity component, with: [3H]spiperone",0.16 ± 0.0085 µM
Sc1ncccn1,uracil transporter,"uracil uptake, inhibitor","Trypanosoma brucei brucei, bloodstream form","30 s, with: 0.15 µM [3H]-uracil",1640 ± 510 µM
Cc1ccc2nc(N)[nH]c(=O)c2c1Sc1ccncc1,SHMT1,"enzyme activity, absorbance",,pH 7.2,> 1000 µM
[Ca+2],"Cyclic nucleotide-gated channel alpha-2 (CNGA2, Bos taurus, UniProt Q03041, E340G)","single-channel current, blocker, outside-out patch",,"E340G mutant, +80 mV, with: cGMP 1 mM",32000 µM
Nc1ncnc2c1ncn2[C@@H]1O[C@H](CSCC[C@H](N)C(=O)O)[C@@H](O)[C@H]1O,NNMT,"ligand displacement, FP",,,82.9 µM
OC[C@H]1OC(O)[C@H](O)[C@@H](O)[C@@H]1O (stereo partly drawn),beta-glucosidase (Penicillium italicum),non-competitive inhibitor,,"up to 6 mM, pH 4.5, 60 °C, with: pNP-glucoside",8900 µM
CCCCCCCCCC=O,CYP2E1,competitive inhibitor,human liver S9,"30 min, pH 7.4, with: p-nitrophenol substrate",17 ± 1 µM
Cc1cn([C@H]2C[C@H](O)[C@@H](CO)O2)c(=O)[nH]c1=O,uracil transporter,"uracil uptake, inhibitor","Trypanosoma brucei brucei, bloodstream form","30 s, with: 0.15 µM [3H]-uracil",> 10000 µM
CCOC(=O)[C@@]1(CS)N[C@@H](C(=O)O)C(C)(C)S1,sfhI,"enzyme activity, inhibitor",,"pH 7.5, 30 °C, with: imipenem substrate",130 ± 10 µM
CC(C)CCCC(C)CCO (stereo not drawn),FLP,"binding, fluorescence displacement",,with: 1-NPN 2 µM,0.39 µM
CCCCCc1ccc(O)c(C(=O)O)c1,"KAT8 (Homo sapiens, UniProt Q9H7Z6)","enzyme activity, inhibitor",,"up to 400 µM, with: 4 µM acetyl-CoA, 60 µM histone substrate",no inhibition
Fc1ccc(N2CCN(CCCCn3ccc4ccccc43)CC2)cc1,"Tmem97 (Rattus norvegicus, UniProt Q5U3Y7)","ligand displacement, radioligand",,,0.0133 µM
Nc1ncnc2c1ncn2[C@@H]1O[C@H](COP(=O)(O)OP(=O)(O)NP(=O)(O)O)[C@@H](O)[C@H]1O,Lrrk2,"enzyme activity, inhibitor, radiometric",,"Ki,e, with: LRRKtide substrate varied",700 ± 100 µM
C=CCc1ccc(O)c(OC)c1,FLP,"binding, fluorescence displacement",,with: 1-NPN 2 µM,1.69 µM
O=C(O)C(CCc1ccccc1)[C@@H]1CCN[C@H]1C(=O)O (relative stereo),native NMDA receptors,"binding, radioligand displacement",rat cortical synaptosomes,with: [3H]CGP ligand,> 100 µM
O=S1(=O)O[C@@H]2[C@H](O)[C@@H](O)[C@H](O)[C@@H](CO)[C@@H]2O1,"GBA1 (Homo sapiens, UniProt P04062, R534H)","enzyme activity, irreversible inhibitor",,"pH 5.2, 37 °C, with: 2,4-DNP-β-Glc",> 500 µM
CCCN(CCC1(O)CC(NS(=O)(=O)c2ccc(F)c(F)c2)C1)[C@H]1CCc2nc(N)sc2C1 (stereo in doubt),"dopamine D2-like receptor, rat",radioligand binding,rat striatal membranes,"high-affinity component, with: [3H]spiperone",0.057 ± 0.0074 µM
O=c1c(-c2ccc(O)cc2)coc2cc(O)cc(O)c12,"CNGA1 (Bos taurus, UniProt Q00194)","cGMP-activated ion current, inhibitor, inside-out patch clamp",Xenopus oocytes,with: AMP-PNP 200 µM,9.3 ± 0.9 µM
OC[C@H]1O[C@@H](n2cnc3c(NC(C4CCC4)C4CCC4)ncnc32)[C@H](O)C1O (stereo in doubt),"off-target receptors and transporters, human",radioligand binding,,PDSP screen,> 1 µM
CCCN(CC[C@]1(O)C[C@@H](NS(=O)(=O)c2ccccc2Cl)C1)[C@H]1CCc2nc(N)sc2C1 (relative stereo),"dopamine D2-like receptor, rat",radioligand binding,rat striatal membranes,"high-affinity component, with: [3H]spiperone",0.286 ± 0.049 µM
OC[C@@H]1[C@@H](O)[C@H](O)[C@@H](O)CN1CCCCCOCC12CC3CC(CC(C3)C1)C2,"bglA (Thermotoga maritima, UniProt Q08638)","enzyme activity, inhibitor, Lineweaver-Burk",,"pH 6.8, 25 °C, with: p-nitrophenyl β-D-glucopyranoside",4.97 µM
O=C1C=CNC(=O)C1,uracil transporter,"uracil uptake, inhibitor","Trypanosoma brucei brucei, bloodstream form","30 s, with: 0.15 µM [3H]-uracil",> 5000 µM
CCCN(CCC1(O)CC(NC(=O)c2ccccc2Cl)C1)[C@H]1CCc2nc(N)sc2C1 (stereo in doubt),"dopamine D2-like receptor, rat",radioligand binding,rat striatal membranes,"high-affinity component, with: [3H]spiperone",0.072 ± 0.011 µM
O=C(O[C@@H]1Cc2c(O)cc(O)cc2O[C@@H]1c1cc(O)c(O)c(O)c1)c1cc(O)c(O)c(O)c1,"Solute carrier family 22 member 6 (Rattus norvegicus, UniProt O35956)","transporter uptake, inhibitor",,,595 µM
CCCN(CCC1(O)CC(NC(=O)c2ccc(F)c(Cl)c2)C1)[C@H]1CCc2nc(N)sc2C1 (stereo in doubt),"dopamine D2-like receptor, rat",radioligand binding,rat striatal membranes,"high-affinity component, with: [3H]spiperone",6.95 ± 1.09 µM
CCOC(=O)[C@@]1(CS)N[C@@H](C(=O)O)CS1,sfhI,"enzyme activity, inhibitor",,"pH 7.5, 30 °C, with: imipenem substrate",20 ± 2 µM
N#Cc1c(-c2cccs2)[n+]([O-])c2cc(S(N)(=O)=O)ccc2[n+]1[O-],"CA12 (Homo sapiens, UniProt O43570)",,,,0.178 ± 0.013 µM

# Some of these lines once more:
Compound,target,test,system,conditions,Ki
CCOC(=O)[C@@]1(CS)N[C@@H](C(=O)O)C(C)(C)S1,sfhI,"enzyme activity, inhibitor",,"pH 7.5, 30 °C, with: imipenem substrate",130 ± 10 µM
CC(C)CCCC(C)CCO (stereo not drawn),FLP,"binding, fluorescence displacement",,with: 1-NPN 2 µM,0.39 µM
CCCCCc1ccc(O)c(C(=O)O)c1,"KAT8 (Homo sapiens, UniProt Q9H7Z6)","enzyme activity, inhibitor",,"up to 400 µM, with: 4 µM acetyl-CoA, 60 µM histone substrate",no inhibition
